Experimental data pooled from the literature.
Numbered parts are unrelated; each lists some results of a single study.

Sample 1
Target: PABPC1L2, full length, GST fusion (mouse, UniProt A0ABA7IW68)
Technique: RNAcompete
Form: RNA
Sample: in vitro
Tested at: 20 nM
Setting: 7-mer, probes averaged, single round
Reference: mean of 7-mers
Reading: higher = stronger binding
Residues (chain): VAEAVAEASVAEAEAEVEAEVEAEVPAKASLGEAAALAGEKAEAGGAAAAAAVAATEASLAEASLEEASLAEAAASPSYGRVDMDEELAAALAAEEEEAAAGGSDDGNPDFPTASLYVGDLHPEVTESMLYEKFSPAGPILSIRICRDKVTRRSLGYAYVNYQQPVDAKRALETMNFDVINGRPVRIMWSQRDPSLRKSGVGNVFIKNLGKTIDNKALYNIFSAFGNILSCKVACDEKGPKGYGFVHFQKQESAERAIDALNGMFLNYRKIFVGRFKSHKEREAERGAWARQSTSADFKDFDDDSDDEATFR
| Strand | 7-mer Z-score |
| --- | --- |
| AUGCGUC | -0.353 |
| GGCAAAC | 0.601 |
| GCACUUG | -0.137 |
| AGGGUCU | -0.0917 |
| GUUCGGA | -0.215 |
| GAUCACC | -0.242 |
| UAGCUUA | -0.168 |
| GCCCAAG | -0.175 |
| CGCGUGG | 0.0587 |
| UUGACUA | -0.11 |
| CCCGAUU | -0.266 |

Sample 2
Partner: PRPF8 (Homo sapiens, UniProt Q6P2Q9)
Technique: cross-linking MS
Sample: cell fractions
With: DSSO
| Molecule | cross-linked residues |
| --- | --- |
| USP39 (Homo sapiens, UniProt Q53GS9) | K508 to K983 |
| TCERG1 (Homo sapiens, UniProt O14776) | K1049 to K1222 |
| EFTUD2 (Homo sapiens, UniProt Q15029) | K405 to K218 |

Sample 3
Target: Interferon regulatory factor 7, full length, phosphomimetic (IRF7, Homo sapiens, UniProt Q92985, residues 1-503, S471D/S472D/S475D/S476D/S477D/S483D/S484D/S487D)
Chain of UniProt Q92985 (whole entry, unmodified, looked up): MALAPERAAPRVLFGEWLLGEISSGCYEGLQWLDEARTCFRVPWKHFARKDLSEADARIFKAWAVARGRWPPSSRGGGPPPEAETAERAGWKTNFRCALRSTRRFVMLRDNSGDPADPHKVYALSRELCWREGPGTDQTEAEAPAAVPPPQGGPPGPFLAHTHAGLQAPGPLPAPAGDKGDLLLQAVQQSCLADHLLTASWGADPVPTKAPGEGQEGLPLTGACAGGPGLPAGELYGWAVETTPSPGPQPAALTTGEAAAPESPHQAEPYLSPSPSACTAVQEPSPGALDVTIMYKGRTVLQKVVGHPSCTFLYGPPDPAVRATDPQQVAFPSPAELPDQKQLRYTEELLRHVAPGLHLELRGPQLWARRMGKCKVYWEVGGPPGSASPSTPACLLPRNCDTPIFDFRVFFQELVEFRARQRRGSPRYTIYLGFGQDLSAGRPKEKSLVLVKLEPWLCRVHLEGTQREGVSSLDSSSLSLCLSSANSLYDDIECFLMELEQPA
Technique: protein-binding microarray
Form: double-stranded DNA, one strand shown
Sample: in vitro
Tested at: 2200 nM top
Setting: 60-bp whole probe
With: salmon DNA 0.4 mg/ml
Reference: random background probes
Reading: higher = stronger binding
All sequences stand within: GCCTAGCAC … GTCTTGATTCGCTTGACGCTGCTG
| Strand | fitted relative affinity |
| --- | --- |
| TTAGTACTGGACTATCGGTTAGTGCTA | 0.225 z-score |
| TCACGTGACCCTCTCAAACTGTGCTAG | 0.902 z-score |
| GACGGTTTCCGTTTCCTGACGTGCTAG | 6.9 z-score |
| CTGGTTTTTACTTTCTGAATGTGCTAG | 4.5 z-score |
| ATCATTTTCGTTTTTATTATGTGCTAG | 10.1 z-score |
| TCATTTCTTTAACTCATACTGTGCTAG | 1.63 z-score |
| TTAGGTGTCGGTTCCGGTTAGTGCTAG | 1.1 z-score |
| GACGATATCAGTCTAGAGACGTGCTAG | 0.114 z-score |
| TCATTTTTATCAAATGTGACTGTGCTA | 0.591 z-score |

Other studies, line by line
| Molecule | target | assay | system | setting | scale | endpoint | result |
| --- | --- | --- | --- | --- | --- | --- | --- |
| PhoQ, residues 284 288 289 292 302 303 SSCLAV | PhoP, residues 12 14 15 18 19 IQFRS (Escherichia coli, UniProt P23836) | Sort-seq, measured: YFP reporter | E. coli | PhoQ-PhoP variant library, with: 10 µM Mg2+ | reference: high Mg2+ state, higher = stronger signaling | fold induction | 13.1 |

Some of these lines once more (sample 3):
| Strand | fitted relative affinity |
| --- | --- |
| GACGGTTTCCGTTTCCTGACGTGCTAG | 6.9 z-score |
| CTGGTTTTTACTTTCTGAATGTGCTAG | 4.5 z-score |
| ATCATTTTCGTTTTTATTATGTGCTAG | 10.1 z-score |
